# Measured values of several laboratories.
# Parts stem from different laboratories: compare values within a part only.

# Study 1
# Target: Ras GTPase-activating protein-binding protein 1, full length (G3BP1, Homo sapiens, UniProt Q13283)
# UniProt Q13283, sequence (whole entry, looked up): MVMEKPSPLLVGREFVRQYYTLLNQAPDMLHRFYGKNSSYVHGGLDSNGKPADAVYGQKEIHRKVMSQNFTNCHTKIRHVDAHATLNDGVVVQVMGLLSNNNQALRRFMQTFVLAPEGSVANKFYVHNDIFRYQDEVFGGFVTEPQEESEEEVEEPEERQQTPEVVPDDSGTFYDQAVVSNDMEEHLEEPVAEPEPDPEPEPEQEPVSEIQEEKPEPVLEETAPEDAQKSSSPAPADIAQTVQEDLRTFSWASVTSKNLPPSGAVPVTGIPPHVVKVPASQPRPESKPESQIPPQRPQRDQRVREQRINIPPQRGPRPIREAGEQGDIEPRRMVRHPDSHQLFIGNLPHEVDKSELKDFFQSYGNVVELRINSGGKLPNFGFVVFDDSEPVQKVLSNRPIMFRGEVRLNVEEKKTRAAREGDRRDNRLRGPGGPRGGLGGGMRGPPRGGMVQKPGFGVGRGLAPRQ
# Method: RNA Bind-n-Seq
# Form: RNA
# Medium: in vitro
# Concentration: 200 nM
# Setting: whole 134-nt RNA, ends assumed
# Together with: 150 mM LiCl
# Relative to: input library
# Direction: higher = stronger binding
# Library: 7-deaza-guanosine replaces G
# All sequences stand within: GGGAGUUCUACAGUCCGACGAUC … UGGAAUUCUCGGGUGUCAAGG
Sequence,log2 enrichment
UGGGAGGUGGAUUUUGUUUAGUUUUUUAGCUCAUUUCCAGGGGUGGGAAUUUUUUUUUAAUAUGUGUCAUGAAUAAAGUUGUUUUUGAAA,0.135
UCAAGUCCUGUGCUACACAUCGUAUGUACCGAAUCGGGUUUGGUUUGGGUUUGGGAAAGUAUUAUGUUACGCCGUUCGGAUCUGCACUUC,-1.45
UGGGAGGUGGAUUUUGUUUAUUUUUUUAGCUCAUUUCCAGGGGUGGGAAUUUUUUUUUAAUAUGUGUCAUGUAUAAAGUUGUUUUUGAAA,0.0521
AAGUCCUGUGCUACACAUCGUAUGUACCGAAUCGGAAAAGGGAAAAGGGGAAAAGGGAAAGUAUUAUGUUACGCCGUUCGGAUCUGCACU,0.22
GUCCUGUGCUACACAUCGUAUGUACCGAAUCGGGCCCCCGGGCCCCCGGGCCCCCGGGGAAAGUAUUAUGUUACGCCGUUCGGAUCUGCA,-1.68
CCUCAAGUCCUGUGCUACACAUCGUAUGUACCGAAUCGGCGGGGCGGGCGGGGAAAGUAUUAUGUUACGCCGUUCGGAUCUGCACUUCCA,-0.135
UGGCCCUGGUGGCAUGCGGUGAGGAAGAGGUGGCCUCAUGGAUCGUGGUGGUCCCGGUGGAAUGUUCAGAGGUGGCCGUGGUGGAGACAG,0.298
UCCUCAAGUCCUGUGCUACACAUCGUAUGUACCGAAUCGGAGGGGAGGAGGGAAAGUAUUAUGUUACGCCGUUCGGAUCUGCACUUCCAG,-0.269
AAGUCCUGUGCUACACAUCGUAUGUACCGAAUCGGGGAGGGGAAAGGGGUUUGGGGAAAGUAUUAUGUUACGCCGUUCGGAUCUGCACUU,-0.599
UGGGAGGUGGAUUUUGUUUAUUUUUUUAGCUCAUUUCCAGGGGUUGGAAUUUUUUUUUAAUAUGUGUCAUGAAUAAAGUUGUUUUUGAAA,-0.875
CCUCAAGUCCUGUGCUACACAUCGUAUGUACCGAAUCGGGGCGGGGCGGCGGAAAGUAUUAUGUUACGCCGUUCGGAUCUGCACUUCCAG,-0.883

# Study 2
# Target: Sal-like protein 4, full length isoform A (SALL4, Homo sapiens, UniProt Q9UJQ4, residues 1-1053)
# UniProt Q9UJQ4, sequence (whole entry, looked up): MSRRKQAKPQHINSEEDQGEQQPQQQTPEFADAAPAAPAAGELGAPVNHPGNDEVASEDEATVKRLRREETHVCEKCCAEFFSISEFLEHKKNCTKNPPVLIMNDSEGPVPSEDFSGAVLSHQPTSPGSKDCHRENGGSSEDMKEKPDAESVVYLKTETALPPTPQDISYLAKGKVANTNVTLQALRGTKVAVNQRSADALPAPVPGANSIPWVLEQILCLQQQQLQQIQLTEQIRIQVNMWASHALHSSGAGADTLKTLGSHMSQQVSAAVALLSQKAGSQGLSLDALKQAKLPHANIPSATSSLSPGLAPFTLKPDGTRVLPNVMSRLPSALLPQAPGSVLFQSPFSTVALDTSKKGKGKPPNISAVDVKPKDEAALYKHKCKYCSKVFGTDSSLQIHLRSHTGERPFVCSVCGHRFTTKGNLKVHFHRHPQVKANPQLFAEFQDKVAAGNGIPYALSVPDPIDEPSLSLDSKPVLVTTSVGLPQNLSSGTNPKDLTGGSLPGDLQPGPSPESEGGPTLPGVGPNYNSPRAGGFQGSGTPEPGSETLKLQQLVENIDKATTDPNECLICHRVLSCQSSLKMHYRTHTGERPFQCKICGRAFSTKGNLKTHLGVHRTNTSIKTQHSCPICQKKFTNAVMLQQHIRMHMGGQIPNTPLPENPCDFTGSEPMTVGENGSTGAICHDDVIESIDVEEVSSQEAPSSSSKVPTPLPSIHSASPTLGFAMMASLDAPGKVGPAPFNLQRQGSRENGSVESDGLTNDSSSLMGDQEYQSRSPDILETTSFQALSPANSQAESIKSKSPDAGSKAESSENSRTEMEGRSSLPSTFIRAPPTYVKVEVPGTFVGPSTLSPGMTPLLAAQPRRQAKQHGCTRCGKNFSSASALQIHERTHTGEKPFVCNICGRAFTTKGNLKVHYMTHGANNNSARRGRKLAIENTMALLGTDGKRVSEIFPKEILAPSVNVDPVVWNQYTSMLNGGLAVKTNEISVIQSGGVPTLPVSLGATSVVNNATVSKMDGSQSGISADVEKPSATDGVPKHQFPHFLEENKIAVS
# Method: universal PBM
# Form: double-stranded DNA, one strand shown
# Medium: in vitro
# Concentration: 600 nM
# Setting: 8-mer, flanks averaged, mean of replicates
# Direction: higher = stronger binding
Sequence,E-score
CAGATCCA,-0.0163
ATGGGTAG,-0.0631
AAACAATC,0.241
AAGCGGAG,-0.231
AGCTGCCC,-0.275
AATGAACT,0.138
CGGACTTC,-0.146
ATTCGATG,0.0401
GGTCCACC,-0.337
GAATCTGC,-0.0764
ATTTTTGG,0.216
CTGACTGC,-0.19
AGGCACAA,0.065
ACAGTACA,0.087
CCCGCACG,-0.31
ATAGCAAC,0.0791
CACCCACC,-0.237
ACCTGTTG,0.116
CCCTGGTA,-0.293
CGCTAATA,0.279

# Study 3
# Target: RING finger protein unkempt homolog, zinc fingers 1-6, SBP tag (UNK, Homo sapiens, UniProt Q9C0B0, residues 30-357)
# UniProt Q9C0B0, sequence (30-357, looked up): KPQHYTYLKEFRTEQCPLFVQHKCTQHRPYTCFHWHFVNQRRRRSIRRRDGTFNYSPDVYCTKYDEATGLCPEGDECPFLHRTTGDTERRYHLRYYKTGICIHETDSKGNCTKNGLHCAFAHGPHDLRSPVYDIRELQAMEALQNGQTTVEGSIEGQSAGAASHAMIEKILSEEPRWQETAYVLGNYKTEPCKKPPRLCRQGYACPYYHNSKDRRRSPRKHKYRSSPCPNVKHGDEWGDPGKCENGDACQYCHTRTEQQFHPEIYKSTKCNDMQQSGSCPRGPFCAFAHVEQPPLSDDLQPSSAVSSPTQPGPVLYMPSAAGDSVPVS
# Method: RNA Bind-n-Seq
# Form: RNA
# Medium: in vitro
# Concentration: 100 nM
# Setting: RNA with constant flanks, vertebrate orthologous sites, ends assumed
# Relative to: input RNA pool
# Direction: higher = stronger binding
# All sequences stand within: GGGAGUUCUACAGUCCGACGAUC … CAACAGAGGAUUGAGCAUCA
Sequence,bound/input enrichment [ratio]
AAAACCCCGAUUUUAGAUGUGAUAUUUAGGCUUUCAUUCCAGUUUGUUUUGUUUUUUGUUUAGAUACCAAUCUUUUAAAUUCUUGCAUUUUAGUAAGAAAGCUAUCUUUUUAUGGAUGUU,0.961
AAAUUUAUUUCAUGCCCUGGACUCCUUAUCGUACUGAUACUUUAAUAGAAUAUGCUUCUUUGGAAGAUUUCCAAAACAGUCGCCAAACAACUACAUAUAAACUGCCAAAUCGAGUUGAUG,0.853
AACUACUAAAAAAACCAAACCCAAAACUGAACACCAUUUAUAAACGUAUCAGUUCACACAGACCUGCAUUAAACAACUUUUAUAAAUUUUUCAGGGUGUCACUAGAUUUGCUAAAUCUAA,0.638
UCCCAGCACUCUGAUAAAAAGUGUGGACUGGUUGCUUGUAUUUUCCUUAUUCUUUUUAAUCAGCUUUAUUAUGUACGCUACCAUUCGAACUGAGAGUAUUCGGUGGCUGAUUCCGGGACA,0.455
AUGCAUUUUGUGACUUGGAUGUGGUCUGCACAGGAAGCUGCUGGCCCCUGCGCAACAACACAUAAAAAGUUUGUCUUUUUUUAAGAUGUUAAAACUGAAUUGAAUUUACUAAAAAUGUAA,0.141
UCAAGGGUUUAGUUAUUUUUAUUUUUUCUUUCCCCUCAAUCCUUUUUUAUUUUUAAAAACUAGUUCUUUUGUAAUGUGGUGUUCAAAACAAGAUUGAAUACGGGCACUCCACCUCUUUAG,2.81
GUUUGUUUCUAAUUUCAAGCAAAAAAAAAUCUUAUUGUACUUGAAUGUGUCCUGUUUUGUUAGCACACCUAGACUUGCUGUAACUGUACUCAUGUCCCAGUAUGUACGUUCUUUCUAUGA,0.64
UUGUGUUUGUUUUGCACAUGGCAGUGUAUAUUGAGGAUCUUCUGAGGAGGAAGGGGUGCCUAGCGGUGGUGCCUGGGCUCCCGGCCUCUAGCGCCCCACCCGCCUCAGCACCCUGCCUGG,0.371
GUUAGGCCAUGAAGCUUAUCGGUUAGGCCAUGAAGCUUAUAGGUUAGGGCAGGACCCUUAUAGAUUAGGCCAUGAUCCCUACAGACUAACUCCUGAUCCCUACAGAAUGUCUGCUAGACC,0.424
UCAUUUUUAAUUUUAACUUUAUUUUAUACAACGUGUAGACAGUUCCCUGUUCUCUGCAUUUAGAAGUAUACACAGUACAACUGUUAAUUCUGUAAGUAAUUUUUAUAAUUAUGAUGUAAC,0.754
CCUACAAUAAUGAAAACCUACAGGAAUUUUUUUAUUUUUCAUUUUCCCCUUAAGUAUAUUUAGUAUUUUUCCCCCAGGCAGAUCAUUCUGAGUGUGCGAGUGUGUGUGCACAUGUUACAA,2.83

# Study 4
# Target: Histone acetyltransferase KAT6A, both winged helices, GST fusion (KAT6A, Homo sapiens, UniProt Q92794, residues 1-181)
# Method: protein binding microarray
# Form: double-stranded DNA, one strand shown
# Medium: in vitro
# Concentration: not given
# Setting: 8-mer, flanks averaged, mean of 2 arrays, mostly near background
# Relative to: not given
# Direction: higher = stronger binding
# Residues (chain): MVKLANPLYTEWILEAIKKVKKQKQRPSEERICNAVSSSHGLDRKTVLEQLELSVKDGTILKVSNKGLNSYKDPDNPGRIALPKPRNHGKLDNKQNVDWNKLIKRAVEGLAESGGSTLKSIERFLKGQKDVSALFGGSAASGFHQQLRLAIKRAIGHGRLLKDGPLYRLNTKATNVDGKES
Sequence,E-score
AGAGTTGG,-0.227
AAAAGAAT,0.0634
ATCATTGA,0.0364
AACGCTAT,0.0498
TACGCGCA,0.342
GATTTTGA,-0.0953
AGTCTTAT,-0.05
ATCTTTTA,-0.0455
CATACAAC,-0.0894
AGTGCTAG,-0.0956
AGCACTAA,-0.0848
CGAACCAC,0.079
CGCTTAGA,0.0938
AGTAATTC,-0.00404
AATGACCG,0.108
CCGCCCTC,0.197
ACTCGAGC,-0.174
ATAACGTG,0.0144
CTTATGTC,-0.0153
AGCGAGCT,-0.0714
CGAAAAAC,0.00473
AACTGGAC,-0.112

# Study 5
# Target: RNA binding protein fox-1 homolog 2, RRM domain, GST-SBP tag (RBFOX2, Homo sapiens, UniProt O43251-10, residues 100-194)
# Method: RNA Bind-n-Seq
# Form: RNA
# Medium: in vitro
# Concentration: 365 nM
# Setting: natural RNA segment, single round, ends assumed
# Relative to: no-protein control
# Direction: higher = stronger binding
# All sequences stand within: GGGAGUUCUACAGUCCGACGAUC … UGGAAUUCUCGGGUGCCAA
# Residues (chain): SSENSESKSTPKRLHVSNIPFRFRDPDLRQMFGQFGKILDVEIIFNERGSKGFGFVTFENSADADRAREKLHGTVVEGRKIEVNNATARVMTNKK
Sequence,RBNS enrichment (R)
AGCAUCCAGACUAGCUGUGAUUACAGGUGUGCACCACCACACCCAGCUACAUUUUUUUUUGGUAGAGACAGGGUCUCACUAUGUUACCCAGUCUGGUCUCAAACUCCCGG,0.406
GAUUUUUCUCUCACUAACUGAAAGUGUGUUGAGUCUCUACUUUCUGUCAGUCGUGUAUUAUACUAAGGCAAGUGUUGUAAAGAUGAAUUACAAAUAGAUCUAGGAACUGG,0.34
GGAAGUGGCAGUAAAAAGUAUUGAGUGUUUUAUGCUGGUGACUGUAACCAAUGUCAUCUUGCUAAAUUCAUGUUUUGUACAAUUACUAAAUUGUAUACAUUUUGUUAUAG,0.589
CCUCUGGUGCCCACUUUUGUCUCCCACUUUACCAGGUGGGCCACAUGCACUGAGUGUCACUUUGCUGCAGCUCAUUUGUUUCCAAUAAAAGUUUCUGUGACUUAGAUGGA,0.222
UUGGAAUCACACCCUCCGGUUAUGUUGCUCCAGUAAAAUCUUGCCUGGAAAGAGGCAGUCUUCUUAGCAUGGUGAGCUGAGUUCAUGGCUUUUUUUUGUAGCCAGUCCUG,2.38
UGCUCUGCCGAGUAGAAAGUAGGUAGGGUCUGAAGGUGUCGAGAAGGCCUUACCUGUGGUGUGACAGAUUGAAUUGAUUGUUUACACUGGGGACUGUAUCUCGGAUCUUU,0.722
CACUGGAAUAAUACUAUUUAUUUUCACCUGUGAAAAAUGACUUCAUUGUACUUGAAACACCUCCUUUGCAUUUCUCCAUUUGUGCCAUUCACUAGUGGAAAUAAAUUGUA,0.368
UAAAAACAGCACUGUUCCCCAAGGGGGUGUUCUGGGCUUCUCUCUCUUCUCACUUUACCUGUUUUUAUUUCUGCUUGUAUCUAAGUGUGAAGGCAGGGCAGGUACACUGA,0.639
AUUGUGAAAUGGAAAUGCUUUACAGGAAGUAAAUGCAAAUUACUUUUAAGUGUGCUUUAAAGAAAAAUAUUUUCCCCACAAGAGAAAUUUAAAUAAAGAAUUUUAUUUGU,1.36
UGUAUAAUAUGCUAUUAAUACACAUUAGAUGAUAACAGUUGUUCCAUGAAUGAUUCUAUGAAGCUAUGCAUCUUAGACCUCUUGAGCUGUGAAUUAGCACUAUUUUCUAU,0.647
ACAGCAGAAGAGGAAUGUCGCCCACUGAGGCCACCCAGAUGCAGAGUCUAGGAUUCCUUGCCCACUGGCCUUUUGGAAAUGAAGCACCACUGGCCUGAAUAAUUAGCCUU,0.406
AGAUUUGAGGACUGAAGCUGGGGCUUGGGGAUUGCCACUAAGUACAGCUGACGGUUUCUCCCCGGACACUCGCCUACUAAGUACCCUUGGGGUGGUGCUGGGUCAUUACU,0.328

# For quick reference, copied from above (study 5):
Sequence,RBNS enrichment (R)
UGCUCUGCCGAGUAGAAAGUAGGUAGGGUCUGAAGGUGUCGAGAAGGCCUUACCUGUGGUGUGACAGAUUGAAUUGAUUGUUUACACUGGGGACUGUAUCUCGGAUCUUU,0.722
AUUGUGAAAUGGAAAUGCUUUACAGGAAGUAAAUGCAAAUUACUUUUAAGUGUGCUUUAAAGAAAAAUAUUUUCCCCACAAGAGAAAUUUAAAUAAAGAAUUUUAUUUGU,1.36
GAUUUUUCUCUCACUAACUGAAAGUGUGUUGAGUCUCUACUUUCUGUCAGUCGUGUAUUAUACUAAGGCAAGUGUUGUAAAGAUGAAUUACAAAUAGAUCUAGGAACUGG,0.34
UUGGAAUCACACCCUCCGGUUAUGUUGCUCCAGUAAAAUCUUGCCUGGAAAGAGGCAGUCUUCUUAGCAUGGUGAGCUGAGUUCAUGGCUUUUUUUUGUAGCCAGUCCUG,2.38
ACAGCAGAAGAGGAAUGUCGCCCACUGAGGCCACCCAGAUGCAGAGUCUAGGAUUCCUUGCCCACUGGCCUUUUGGAAAUGAAGCACCACUGGCCUGAAUAAUUAGCCUU,0.406
CACUGGAAUAAUACUAUUUAUUUUCACCUGUGAAAAAUGACUUCAUUGUACUUGAAACACCUCCUUUGCAUUUCUCCAUUUGUGCCAUUCACUAGUGGAAAUAAAUUGUA,0.368
